Experimental data pooled from the literature.
Compare with care: the assays were run in different laboratories.
Cell line: MCF7

SMILES	effect on	action	technique	measured	time	notes	IC50 [µM]
O=[N+]([O-])c1ccc(O)c(/C=N/Nc2ccccc2)c1	cell growth or viability		MTT		24 h		14.5
O=C1Nc2ccccc2C12NC(c1ccc(Cl)c(Cl)c1)C1(C(=O)Nc3ccccc31)N2Cc1ccc(Cl)c(Cl)c1 (centres unmarked)	cell growth or viability		MTT		48 h		42.1
Cc1c(COc2cc(OCc3cccc(C#N)c3)c(CNC(CO)(CO)CO)cc2Cl)cccc1-c1cccc(OCCCCCCC(=O)NO)c1	cell growth or viability		CCK-8		48 h		> 20
Cc1ccc2c(Cl)cc(Cl)c([O-])c2n1.Cc1ccc2c(Cl)cc(Cl)c([O-])c2n1.[Co+2].c1ccc2nc3c4cccnc4c4ncccc4c3nc2c1	cell growth or viability		MTT		48 h		0.94
CC(C)OC(=O)[C@H](CO)NCc1cc(Cl)c(OCc2cccc(-c3ccccc3)c2Br)cc1OCc1cccnc1	cell growth or viability		MTT				> 10
Cc1ccnc(-c2cc(C(=O)O)ccn2)c1.F[P-](F)(F)(F)(F)F.F[P-](F)(F)(F)(F)F.[Ru+2].c1ccc(-c2ccccn2)nc1.c1ccc(-c2ccccn2)nc1	cell viability				48 h	dark	> 100
Nc1cc2cccnc2c2ncccc12.[Cl-].[Cl-].[Ru+2].c1cnc2c(c1)ccc1cccnc12.c1cnc2c(c1)ccc1cccnc12	cell growth or viability		MTT			dark	> 500
Cc1c(COc2cc(OCc3cccc(C#N)c3)c(CN3CCCC[C@H]3C(=O)O)cc2Cl)cccc1-c1cccc(OCCCCCCC(=O)NO)c1	cell growth or viability		CCK-8		48 h		> 20
CC1(C)[C@H](NC(=O)c2cnn(CCO)c2)C(C)(C)[C@H]1Oc1ccc(C#N)c(Cl)c1	cell growth or viability		CCK-8		7 days		4.2
COc1ccccc1/C=C1\C(=O)Nc2ccc(Nc3nc(C)nc4ccccc34)cc21	cell growth or viability		MTT				6.63
CN1C(=O)CCC(N2C(=O)c3cccc(NCCCCCCCCCNC(=O)CCC(=O)N4CCN(c5nc(-c6cnc(N)nc6C(F)F)nc(N6CCOCC6)n5)CC4)c3C2=O)C1=O (centres unmarked)		inhibitor	In-Cell Western	Akt pSer473	2 h		0.125
O=C(c1ccc([N+](=O)[O-])cc1)N1CCN(CC(OCc2ccc3ccccc3c2)c2ccc(Cl)cc2Cl)CC1 (centres unmarked)	cell growth or viability		MTT		24 h		42.8
Cc1nc(Nc2ccc3c(c2)/C(=C/c2cn(C)c4ccccc24)C(=O)N3C)c2ccccc2n1	cell growth or viability		MTT				0.69
O=C(CCc1ccccc1)N1C(=O)C2(NC(c3ccc(F)cc3)C3(C(=O)Nc4ccccc43)N2Cc2ccc(F)cc2)c2ccccc21 (centres unmarked)	cell growth or viability		MTT		48 h		31.7
C[C@@H]1CC[C@@H]([C@@](O)(COCc2ccccc2)Cn2cnc3ccccc32)[C@H](OCc2ccccc2)C1	cell growth or viability		MTT		72 h		7.45
CN1C(=O)CS/C1=N\N=C\c1cccc2cc3ccccc3nc12	cell growth or viability		MTT		48 h		> 50
COc1cc(-c2cc(=O)c3ccc(OCCCn4c(Cl)nc5ccccc54)cc3o2)cc(OC)c1OC	cell growth or viability		MTT		48 h		166
O=C(CN1CCOCC1)N1CCN(CC(OCc2ccc3ccccc3c2)c2ccc(Cl)cc2Cl)CC1 (centres unmarked)	cell growth or viability		MTT		24 h		> 50
CCC(=CCc1c(O)cc2c(c1O)C(=O)CC(c1ccc(OC)c(O)c1)O2)CC (centres unmarked)	cell growth or viability		MTT		48 h		18.2
O=C1/C(=N\c2ccc(Cl)cc2)c2ccccc2N1Cc1ccccc1	cell growth or viability		MTT		48 h		11.1
Clc1ccc(C(Cn2cncn2)OCc2ccc(Br)cc2)c(Cl)c1 (centres unmarked)	cell growth or viability		MTT		24 h		39.4
CCOC(=O)/C=C1\S/C(=N\N=C\c2cccc3cc4ccccc4nc23)N(c2ccc(F)cc2)C1=O	cell growth or viability		MTT		48 h		> 50
CN1CCN(CC(=O)N2CCN(CC(OCc3ccc4ccccc4c3)c3ccc(Cl)cc3Cl)CC2)CC1 (centres unmarked)	cell growth or viability		MTT		24 h		7.13
CNC(NN=Cc1ccc([N+](=O)[O-])o1)=[S+][Au-][Cl]	cell growth or viability		resazurin				28.1

SMILES	effect on	action	technique	measured	time	notes	IC50 [µM]
Nc1ncc(-c2nc(N3CCOCC3)nc(N3CCN(C(=O)CCC(=O)NCCCCCCCCCCNc4cccc5c4C(=O)N(C4CCC(=O)NC4=O)C5=O)CC3)n2)c(C(F)F)n1 (centres unmarked)		inhibitor	In-Cell Western	Akt pSer473	2 h		0.042
CNS(=O)(=O)Nc1nccc(Cc2c(C)c3ccc(Oc4ncccc4F)cc3oc2=O)c1F	cell viability				7 days		> 1
O=C(CCC(=O)N1CCN(c2nc(N3CCOCC3)nc(-n3c(C(F)F)nc4ccccc43)n2)CC1)NCCCCCC(=O)Nc1cccc2c1C(=O)N(C1CCC(=O)NC1=O)C2=O (centres unmarked)		inhibitor	In-Cell Western	Akt pSer473	2 h		2.51
CCN(CC)c1ccc(C=O)c(OS(=O)(=O)Oc2ccc3c(c2)CC[C@@H]2[C@@H]3CC[C@]3(C)C(=O)CC[C@@H]23)c1					72 h		14.9
O=C(c1cccnc1)N1CCN(CC(OCc2ccc3ccccc3c2)c2ccc(Cl)cc2Cl)CC1 (centres unmarked)	cell growth or viability		MTT		24 h		29.7
CC(C)CN1C(=O)CS/C1=N\N=C\c1cccc2cc3ccccc3nc12	cell growth or viability		MTT		48 h		> 50
Cc1ccc(-c2ccc(C)cn2)nc1	cell growth or viability		MTT		48 h		> 50
C=CCc1c(O)cc2c(c1O)C(=O)CC(c1ccc(O)cc1)O2 (centres unmarked)	cytotoxicity		MTT		48 h	as reported	> 100
Cc1c(C)c2cccnc2c2ncccc12	cell growth or viability		MTT		48 h		> 50
CCOC(=O)/C=C1\S/C(=N\N=C\c2cccc3cc4ccccc4nc23)N(c2ccccc2)C1=O	cell growth or viability		MTT		48 h		> 50
Cc1nc(N(C)c2ccc3c(c2)/C(=C/c2ccccc2)C(=O)N3C)c2ccccc2n1	cell growth or viability		MTT				0.89
CCNC(=S)NN=Cc1ccc([N+](=O)[O-])o1	cell growth or viability		resazurin				39.1
CC(=O)[O][Pd][c]1ccccc1N1N=C(C)C(C)(C)C1=O.CC(=O)[O][Pd][c]1ccccc1N1N=C(C)C(C)(C)C1=O	cell growth or viability		MTT				37.1
Cc1ccc2c(Cl)cc(Cl)c([O-])c2n1.Cc1ccc2c(Cl)cc(Cl)c([O-])c2n1.Cc1ccnc(-c2cc(C)ccn2)c1.[Co+2]	cell growth or viability		MTT		48 h		10.3
CN1CCC(N[C@@H]2CCc3[nH]c4c(C(N)=O)ccc(-c5ccccc5Cl)c4c3C2)CC1	cell growth or viability						0.0183
O=C1/C(=N\c2ccc(Cl)cc2Br)c2ccccc2N1C(=O)c1ccccc1Br	cell growth or viability		MTT		48 h		23.1
O=C([O-])CC(=O)[O-].[W+4].c1cc[cH-]c1.c1cc[cH-]c1	cell growth or viability		MTT				410
Nc1ncc(-c2nc(N3CCOCC3)nc(N3CCN(C(=O)CCC(=O)NCCCCCCCCCCCNc4cccc5c4C(=O)N(C4CCC(=O)NC4=O)C5=O)CC3)n2)c(C(F)F)n1 (centres unmarked)		inhibitor	In-Cell Western	Akt pSer473	2 h		0.0402
O=C1/C(=N\c2ccc(Cl)cc2Br)c2ccccc2N1Cc1ccccc1 (mixture of isomers)	cell growth or viability		MTT		48 h		13.1
COc1ccccc1CNC[C@@](O)(COCc1ccccc1)[C@@H]1CC[C@@H](C)C[C@H]1OCc1ccccc1	cell growth or viability		MTT		72 h		1.63
COc1ccc(C2CC(=O)c3c(cc(O)c(CC=C(C)C)c3O)O2)cc1 (centres unmarked)	cytotoxicity		MTT		48 h	from log IC50	109
Clc1ccc(C(Cn2ccnc2)OCc2ccc(Br)cc2)c(Cl)c1 (centres unmarked)	cell growth or viability		MTT		24 h		> 50
NC(=O)c1ccc(-c2ccccc2Cl)c2c3c([nH]c12)CCC(N)C3 (centres unmarked)	cell growth or viability				96 h		0.0261

A few entries again:
SMILES	effect on	action	technique	measured	time	notes	IC50 [µM]
Cc1ccnc(-c2cc(C(=O)O)ccn2)c1.F[P-](F)(F)(F)(F)F.F[P-](F)(F)(F)(F)F.[Ru+2].c1ccc(-c2ccccn2)nc1.c1ccc(-c2ccccn2)nc1	cell viability				48 h	dark	> 100
Nc1cc2cccnc2c2ncccc12.[Cl-].[Cl-].[Ru+2].c1cnc2c(c1)ccc1cccnc12.c1cnc2c(c1)ccc1cccnc12	cell growth or viability		MTT			dark	> 500
Cc1c(COc2cc(OCc3cccc(C#N)c3)c(CN3CCCC[C@H]3C(=O)O)cc2Cl)cccc1-c1cccc(OCCCCCCC(=O)NO)c1	cell growth or viability		CCK-8		48 h		> 20
CC1(C)[C@H](NC(=O)c2cnn(CCO)c2)C(C)(C)[C@H]1Oc1ccc(C#N)c(Cl)c1	cell growth or viability		CCK-8		7 days		4.2
COc1ccccc1/C=C1\C(=O)Nc2ccc(Nc3nc(C)nc4ccccc34)cc21	cell growth or viability		MTT				6.63
CN1C(=O)CCC(N2C(=O)c3cccc(NCCCCCCCCCNC(=O)CCC(=O)N4CCN(c5nc(-c6cnc(N)nc6C(F)F)nc(N6CCOCC6)n5)CC4)c3C2=O)C1=O (centres unmarked)		inhibitor	In-Cell Western	Akt pSer473	2 h		0.125
